Published values of several laboratories.
Each line is one published result; not all experiments were run side by side. ± marks the error that the study gave.
Target: Carbonic anhydrase 1 (CA1, Homo sapiens, UniProt P00915)
UniProt P00915, sequence (whole entry, looked up): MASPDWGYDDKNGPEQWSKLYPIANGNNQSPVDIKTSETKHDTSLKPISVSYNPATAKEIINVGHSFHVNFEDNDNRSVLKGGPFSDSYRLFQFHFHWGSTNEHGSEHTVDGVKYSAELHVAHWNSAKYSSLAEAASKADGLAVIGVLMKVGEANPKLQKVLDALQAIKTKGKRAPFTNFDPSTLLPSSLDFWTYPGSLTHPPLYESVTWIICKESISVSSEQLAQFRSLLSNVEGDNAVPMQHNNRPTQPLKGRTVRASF

Structure (SMILES)	test	conditions	endpoint	value
NS(=O)(=O)c1ccc(N/N=C2\C(=O)N(CC(=O)Nc3ccccc3Br)c3ccccc32)cc1			Ki	708 nM
CC(=O)Nc1ccc(S(N)(=O)=O)cc1	enzyme activity, inhibitor		Ki	1330 nM
COc1cc(-c2ccnc3nc(Nc4ccc(S(N)(=O)=O)cc4)nn23)cc(OC)c1OC	enzyme activity, inhibitor, stopped-flow		Ki	1230 nM
NS(=O)(=O)c1ccc(NC(=O)NN[C@@H]2OC[C@H](O)[C@H](O)[C@H]2O)cc1	enzyme activity, inhibitor		IC50	19400 nM
COc1cccc(/C=N/NC(=O)CSc2nc3ccccc3c(=O)n2CCc2ccc(S(N)(=O)=O)cc2)c1	enzyme activity, inhibitor, stopped-flow		Ki	756 nM
NS(=O)(=O)c1ccc(NC(=O)NN[C@@H]2O[C@H](CO)[C@@H](O)[C@H](O)[C@@H]2O)cc1	enzyme activity, inhibitor		IC50	22400 nM
COCCOc1cc2ncnc(Nc3cccc(-c4cn(CCc5ccc(S(N)(=O)=O)cc5)nn4)c3)c2cc1OCCOC	enzyme activity, inhibitor, stopped-flow		Ki	1030 nM
CC(C)c1ccc2c(c1)CC[C@H]1[C@](C)(C(=O)O)CCC[C@]21C	CO2 hydration activity, inhibitor, stopped-flow	pH 7.4, 25 °C	IC50	1350 ± 110 nM
COc1ccc(NC(=O)CN2C(=O)/C(=N\Nc3ccc(S(N)(=O)=O)cc3)c3ccccc32)cc1			Ki	776 nM
NS(=O)(=O)c1ccc(NC(=O)NN[C@@H]2O[C@H](CO)[C@@H](O)[C@H]2O)cc1	enzyme activity, inhibitor		IC50	30800 nM
NS(=O)(=O)c1ccc(CCn2c(SCC(=O)N/N=C/c3ccccc3O)nc3ccccc3c2=O)cc1	enzyme activity, inhibitor, stopped-flow		Ki	132 nM
CC(=O)Nc1ccc(S(=O)(=O)N2CCN(C(=O)c3cc4ccccc4oc3=O)CC2)cc1			Ki	> 100000 nM
CC(=O)Nc1ncc(S(N)(=O)=O)s1	enzyme activity, inhibitor		Ki	465 nM
COc1ccc(/C(C)=N/NC(=O)CSc2nc3ccccc3c(=O)n2CCc2ccc(S(N)(=O)=O)cc2)cc1	enzyme activity, inhibitor, stopped-flow		Ki	627 nM
NS(=O)(=O)c1ccc(Nc2nc3nccc(-c4ccc5ccccc5c4)n3n2)cc1	enzyme activity, inhibitor, stopped-flow		Ki	5870 nM

A few entries again:
Structure (SMILES)	test	conditions	endpoint	value
CC(C)c1ccc2c(c1)CC[C@H]1[C@](C)(C(=O)O)CCC[C@]21C	CO2 hydration activity, inhibitor, stopped-flow	pH 7.4, 25 °C	IC50	1350 ± 110 nM
